Assay results of several laboratories.
Protocols differ between the studies behind these lines. “And” joins repeats or separate records; there may be more than shown. Numbers after ± are the reported error.

`difelikefalin` — result for “PGIC much improved”: 28.8% (Japanese haemodialysis patients with pruritus; intravenous, 0.5 µg/kg, 8 weeks).
`human serum albumin` gave a co-IP enrichment of 17.9 (co-immunoprecipitation; human RBC membrane; DSSO crosslinker, unit not given, together with: Band 3 peptide 1-56 bait; baseline: negative control).
With `cotadutide` the metabolite level was 0.89 ± 0.11 scaled intensity (lipidomics, item: hepatic total Dihydroceramides; ob/ob mice on AMLN diet, NASH model, liver; dose not given).
`hemoglobin alpha` has a co-IP enrichment of 0.467 (co-immunoprecipitation; human RBC cytosol; unit not given, together with: Band 3 peptide 1-56 bait; baseline: negative control).
`somatropin`: “height gain in first year of therapy” 7 cm (children with severe GH deficiency, short stature; dose not given, GHSR mutation patients).
`human LDL receptor` has a co-IP enrichment of 85.1 (co-immunoprecipitation; human RBC cytosol; DMTMM crosslinker, unit not given, together with: Band 3 peptide 1-56 bait; baseline: negative control).
`maraviroc` — result for HIV-induced immunosuppression: “decreased” (hCD4+/hCD8+ T-cell ratio, flow cytometry; HIV-infected humanized mice, blood; ip, 120 mg/kg twice daily; baseline: untreated HIV-infected mice).
`GSGAGQITKV` has a binding intensity of 0.189 (human MAGI1-2/6 PDZ construct (MBP fusion); automated holdup; peptide, crude extract; concentration not given, corrected by standard peak, unit not given; baseline: biotin control resin, higher = stronger binding).
`semaglutide`: “fasting plasma insulin” 10.1 ± 1.5 ng/mL (DIO male Wistar rats; dose not given, 2 weeks).
The binding intensity of `GSGAGSETKM` is reported as -0.00349 (human MAGI1-2/6 PDZ construct (MBP fusion); automated holdup; peptide, crude extract; concentration not given, uncorrected, unit not given; baseline: biotin control resin, higher = stronger binding).
`calcium`: “desensitization time constant” 7.53 s and 17.6 s and 10.3 s and 14.6 s (ion current, two-electrode voltage clamp; Xenopus oocytes; 1.8 mM, -80 mV, together with: niflumic acid present).

For quick reference, copied from above:
The binding intensity of `GSGAGSETKM` is reported as -0.00349 (human MAGI1-2/6 PDZ construct (MBP fusion); automated holdup; peptide, crude extract; concentration not given, uncorrected, unit not given; baseline: biotin control resin, higher = stronger binding).
